Results collected from several papers.
Parts stem from different laboratories: compare values within a part only.

Study 1
Target: Fragile X messenger ribonucleoprotein 1, C-terminal low-complexity region (Fmr1, Mus musculus, UniProt P35922)
Technique: RNA Bind-n-Seq
Form: RNA
Medium: in vitro
Concentration: 200 nM
Setting: whole 134-nt RNA, ends assumed
Together with: 150 mM LiCl
Relative to: input library
Direction: higher = stronger binding
Each molecule: 7-deaza-guanosine replaces G
Shared flanks, not repeated: GGGAGUUCUACAGUCCGACGAUC … UGGAAUUCUCGGGUGUCAAGG
Strand	log2 enrichment
CAAGUCCUGUGCUACACAUCGUAUGUACCGAAUCGGAAAAGGAAAAGGAAAAGGGAAAGUAUUAUGUUACGCCGUUCGGAUCUGCACUUC	-0.735
CAAGUCCUGUGCUACACAUCGUAUGUACCGAAUCGGGUUGGGGUUGGGGUUGGGGAAAGUAUUAUGUUACGCCGUUCGGAUCUGCACUUC	-0.0528
UAACUUUAGAGGAGGAUCUGAUGGAUAUGGCAGUGGACGUGGAUUUGGGGAUGCCUAUAAUGGGUAUGGAGGAGGACCUGGAGGUGGCAA	-0.815
UUAAUGAUAUAAGUAGAGAGUAGUAUCCUGGUGGAGUUGUAACCACUAUUUUUGUUUUCUAGAUCCCUAUGGUUCAGGAGGCCAGAAAUU	-1.81
UAGGUAAGAAAGUACUCAUUGUCUAUGCACACCAGGAACCCAAGUCUUUCAACGGAUCCUUGAAGAAUGUGGCUGUAGAUGAACUGAGCA	-0.949
AAGUCCUGUGCUACACAUCGUAUGUACCGAAUCGGGGAAAGGGGUUUGGGGUGGGGAAAGUAUUAUGUUACGCCGUUCGGAUCUGCACUU	-0.803
AAGUCCUGUGCUACACAUCGUAUGUACCGAAUCGGUUUGGUUUUUUUGGAAAAAGGAAAGUAUUAUGUUACGCCGUUCGGAUCUGCACUU	-2.41

Study 2
Target: Histone acetyltransferase KAT6A, both winged helices, GST fusion (KAT6A, Homo sapiens, UniProt Q92794, residues 1-181)
Technique: protein binding microarray
Form: double-stranded DNA, one strand shown
Medium: in vitro
Concentration: not given
Setting: 8-mer, flanks averaged, mean of 2 arrays, mostly near background
Relative to: not given
Direction: higher = stronger binding
Construct (chain): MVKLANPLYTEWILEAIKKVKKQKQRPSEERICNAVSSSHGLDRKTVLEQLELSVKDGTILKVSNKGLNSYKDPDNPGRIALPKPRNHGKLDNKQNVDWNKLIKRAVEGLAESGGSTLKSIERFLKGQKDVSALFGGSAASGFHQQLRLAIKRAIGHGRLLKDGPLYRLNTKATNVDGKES
Strand	E-score
CTGACCCA	-0.197
CACACGAG	-0.0547
GGCCGTTA	0.212
AGCTCACG	0.0345
ATCAAGGC	-0.177
CTTGCTAA	-0.215
AGTAGTGA	-0.105
AGGATGAG	0.0306
AAATCCCA	-0.0855
GGCCGGCA	0.238
ACTAAAAA	0.0111
ATATTTCC	0.00961
GATCAGAA	-0.108
ATGAAATC	0.0243
GAGTAGGC	-0.0865
CTCGCGGA	0.182
AGATGTGC	-0.0604
CCCGTTAG	0.267
CCGATCGG	0.261
GTTCTTCA	-0.0222
AGTATCCG	0.0907
ATACTCGG	0.0891
ACGGATAG	0.171
GATTACCC	0.00157
CATCAGCC	-0.0947

Study 3
Target: Phosphate system positive regulatory protein PHO4, full length, GST-tagged (PHO4, Saccharomyces cerevisiae, UniProt P07270, residues 1-312)
Technique: competition protein-binding microarray
Form: double-stranded DNA, one strand shown
Medium: in vitro
Concentration: 2 µM
Setting: whole 60-bp probe, lowest competitor level
Together with: Cbf1 competitor, 0.05 µM
Direction: higher = stronger binding
Shared flanks, not repeated: … GTCTTGATTCGCTTGACGCTGCTG
Construct (chain): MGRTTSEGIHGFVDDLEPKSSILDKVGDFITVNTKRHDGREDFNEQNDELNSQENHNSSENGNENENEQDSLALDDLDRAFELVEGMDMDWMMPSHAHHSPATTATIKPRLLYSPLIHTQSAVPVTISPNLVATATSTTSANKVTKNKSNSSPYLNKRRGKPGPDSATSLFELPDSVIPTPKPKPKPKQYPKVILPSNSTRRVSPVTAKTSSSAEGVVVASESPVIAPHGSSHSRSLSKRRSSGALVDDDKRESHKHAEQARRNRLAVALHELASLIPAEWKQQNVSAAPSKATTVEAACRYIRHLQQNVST
Strand	fluorescence intensity
CTAACGAAGGTTTGTCACCAAACTTACAAGCCAAGT	3340 a.u.
CACTGAGTGAGCCGCCTCGTGCGATGCGTTAGAAAA	13000 a.u.
CAGAAAGAATAGCGCCTCGTGGAATCTTGGCACCCA	9830 a.u.
CTTTCCCGATCTTGCCGGGTGGGTGTAGCACATTTG	5480 a.u.
CCGTCTACAACTCGGCACGCAAGTAGTCCGCCTAGC	6120 a.u.
CTAACGAAGGTTTGTTAGGTGGGTGACAAGCCAAGT	3420 a.u.
GGTTAAACAGAAAAAGACGTGACGGTGTAACCGAGA	4250 a.u.
CATACCCAACCTTGCCGCGTGGGTGAAGATATTTGT	13400 a.u.
GTTATAAGTGCTTTTCTCGTGCATCCCTTGGCACTT	6940 a.u.
CTAGACAAAGCAATTCTCATGACAAATCTACCGATT	2750 a.u.
ACAAGGAAGGTATTCCACCTGACGAACAAAGATTGA	4220 a.u.
TGTGGGGACGTCGTTCACGTGCAAAAGTCGCCAAAT	14500 a.u.

Study 4
Target: Prothrombin, mature alpha-thrombin (F2, Homo sapiens, UniProt P00734)
Technique: aptamer microarray, sandwich
Form: DNA with 2'F-ANA
Medium: in vitro
Concentration: 200 nM
Setting: whole 15-mer aptamer, many near background
Together with: Cy3 exosite-II aptamer, 400 nM
Direction: higher = stronger binding
Strand: GGTTGGTGTGGTTGG
Modification	mean fluorescence intensity [a.u.]
2'F-ANA at 4 8 9 11 12 13 14 15	89.1
2'F-ANA at 2 3 6 8 10 14	276
2'F-ANA at 1 2 4 12	340
2'F-ANA at 2 3 4 6 7 10 12 13 14 15	149
2'F-ANA at 2 4 9 11 12 15	455
2'F-ANA at 1 2 3 4 8 11 12 14	81.2
2'F-ANA at 5 14 15	43.3
2'F-ANA at 1 2 3 5 6 8 10 11 14	51.7
2'F-ANA at 3 4 6 10 11 12 15	271

Further values, each from its own experiment
Molecule	target	test	system	conditions	scale	quantity	value
PhoQ, residues 284 288 289 292 302 303 HSYLQF	PhoP, residues 12 14 15 18 19 VGHWL (Escherichia coli, UniProt P23836)	Sort-seq, refers to: YFP reporter	E. coli	PhoQ-PhoP variant library, together with: 10 µM Mg2+	relative to: high Mg2+ state, higher = stronger signaling	fold induction	4.81
